Published values from different studies.
Each line is one published result; not all experiments were run side by side. ± marks the error that the study gave.
Cell line: HepG2

Structure (SMILES) = O=c1ccn([C@@H]2O[C@H](CO)[C@@H](O)[C@H]2F)c(=O)[nH]1; assay = cell growth or viability, SRB; conditions = 11 days; CC50 = > 250 µM
Structure (SMILES) = CC1(C)CCCc2cc3c(cc21)C(=O)C=CC3=O; assay = cytotoxicity, Alamar Blue; conditions = 72 h; CC50 = 13.4 ± 1.3 µM
Structure (SMILES) = COc1ccc(C(CC(=O)c2cccc(Oc3ccccc3)c2)C(N)=O)cc1 (stereo not drawn); CC50 = > 300 µg/mL
Structure (SMILES) = Cc1ccc(NC(=O)N2CCCN3CCC(c4ccc(C#CC5(O)CCCCC5)cc4)C3C2)cc1 (stereo not drawn); assay = cell growth or viability, ATP luminescence; conditions = 72 h; CC50 = 5.32 µM
Structure (SMILES) = COC(=O)c1[nH]c(C(=O)OC)c2c1-c1c[nH]c3ccc(Cl)c(c13)C21CN(C)c2ccc(Cl)cc21 (racemic); assay = cell growth or viability, ATP luminescence; conditions = 72 h; CC50 = > 10 µM
Structure (SMILES) = COC(=O)C1C(C=NO)=Cc2cc3c(cc2C1c1cc(OC)c(OC)c(OC)c1)OCO3 (stereo not drawn); assay = cell growth or viability, resazurin; conditions = 48 h; CC50 = > 100 µM
Structure (SMILES) = NCC1OC(OC2C(N)CC(N)C(OC3OC(CO)C(O)C(N)C3O)C2OCCCCCCCCCCCCn2cc(CNc3nc(NCc4cn(CCCCCCCCCCCCOC5C(OC6OC(CN)C(O)CC6N)C(N)CC(N)C5OC5OC(CO)C(O)C(N)C5O)nn4)nc(NCc4cn(CCCCCCCCCCCCOC5C(OC6OC(CN)C(O)CC6N)C(N)CC(N)C5OC5OC(CO)C(O)C(N)C5O)nn4)n3)nn2)C(N)CC1O (stereo not drawn); assay = cell growth or viability, resazurin; conditions = 48 h; CC50 = 10.5 µM
Structure (SMILES) = COc1cc(-c2ccc3oc(-c4ccsc4)c(C#CC4(O)CCCCC4)c3c2)cc(OC)c1OC; CC50 = > 100 µM
Structure (SMILES) = Nc1ccn([C@@H]2O[C@H](CO)[C@@H](O)[C@H]2F)c(=O)n1; assay = cell growth or viability, SRB; conditions = 11 days; CC50 = > 250 µM
Structure (SMILES) = COc1cc(C2c3cc4c(cc3C(C(C)C)C3COC(=O)C23)OCO4)cc(OC)c1OC (stereo not drawn); assay = cell growth or viability, resazurin; conditions = 48 h; CC50 = > 100 µM
Structure (SMILES) = OC[C@H]1O[C@@H](n2cnc3c(O)ncnc32)[C@H](F)[C@@H]1O; assay = cell growth or viability, SRB; conditions = 11 days; CC50 = > 250 µM
Structure (SMILES) = COc1ccc(-c2ccc3oc(-c4ccc(OC)cc4)c(C#CC4(O)CCCCC4)c3c2)cc1; CC50 = > 100 µM
Structure (SMILES) = CC(=O)Oc1cc(C)c(OC(C)=O)c2c1CC=C(CCC=C(C)C)C2; assay = cytotoxicity, Alamar Blue; conditions = 72 h; CC50 = > 200 µM
Structure (SMILES) = COc1cc(C2c3cc4c(cc3C=C(C=O)C2C(=O)OCC=Cc2ccccc2)OCO4)cc(OC)c1OC (stereo not drawn); assay = cell growth or viability, resazurin; conditions = 48 h; CC50 = > 100 µM
Structure (SMILES) = COC(=O)c1[nH]c(C(=O)OC)c2c1-c1c[nH]c3ccc(Cl)c(c13)[C@@]21C=Nc2ccc(Cl)cc21; assay = cell growth or viability, ATP luminescence; conditions = 72 h; CC50 = > 10 µM
Structure (SMILES) = COc1cc(OC(C)=O)c2cc3c(cc2c1OC(C)=O)CCCC3(C)C; assay = cytotoxicity, Alamar Blue; conditions = 72 h; CC50 = 54.6 ± 5.3 µM
Structure (SMILES) = COC(=O)c1[nH]c(C(=O)OC)c2c1c1c3cc(Cl)ccc3[nH]c1c1[nH]c3ccc(Cl)cc3c12; assay = cell growth or viability, ATP luminescence; conditions = 72 h; CC50 = 4.6 µM
Structure (SMILES) = CCOC1=CC(=O)c2cc3c(cc2C1=O)CCCC3(C)C; assay = cytotoxicity, Alamar Blue; conditions = 72 h; CC50 = 199 ± 14 µM
Structure (SMILES) = COc1ccc(NC(=O)N2CCCN3CCC(c4ccc(C#CC5CCCC5)cc4)C3C2)cc1 (stereo not drawn); assay = cell growth or viability, ATP luminescence; conditions = 72 h; CC50 = 3.67 µM
Structure (SMILES) = CNC(=O)c1ccc(-c2cnc3cnc(C(=O)N(C)c4ccc(Cl)cc4)cn23)cc1; conditions = 96 h; CC50 = 27.3 ± 14.2 µM
Structure (SMILES) = CC(=O)Oc1ccc(OC(C)=O)c2cc3c(cc12)CCCC3(C)C; assay = cytotoxicity, Alamar Blue; conditions = 72 h; CC50 = 5.94 ± 0.31 µM
Structure (SMILES) = CNC(=O)CNc1cnc2ccc(-c3ccc(OC)c(OC)c3)cc2n1; conditions = 96 h; CC50 = 26.7 ± 13.9 µM
Structure (SMILES) = COc1cc(COC(=O)C2C(C=O)=Cc3cc4c(cc3C2c2cc(OC)c(OC)c(OC)c2)OCO4)cc(OC)c1OC (stereo not drawn); assay = cell growth or viability, resazurin; conditions = 48 h; CC50 = 89.9 µM
Structure (SMILES) = Cc1ccc(NC(=O)N2CCCN3CCC(c4ccc(C#Cc5cccnc5)cc4)C3C2)cc1 (stereo not drawn); assay = cell growth or viability, ATP luminescence; conditions = 72 h; CC50 = 6.88 µM
Structure (SMILES) = NCC1OC(OC2C(N)CC(N)C(OC3OC(CO)C(O)C(N)C3O)C2OCCCCCCCCn2cc(CNc3nc(NCc4cn(CCCCCCCCOC5C(OC6OC(CN)C(O)CC6N)C(N)CC(N)C5OC5OC(CO)C(O)C(N)C5O)nn4)nc(NCc4cn(CCCCCCCCOC5C(OC6OC(CN)C(O)CC6N)C(N)CC(N)C5OC5OC(CO)C(O)C(N)C5O)nn4)n3)nn2)C(N)CC1O (stereo not drawn); assay = cell growth or viability, resazurin; conditions = 48 h; CC50 = 72.3 µM
Structure (SMILES) = CNC(=O)c1ccc(-c2cnn3ccc(C(=O)N(c4ccc(C#N)cn4)C(C)(C)C)cc23)cc1; conditions = 96 h; CC50 = 40 ± 17.3 µM
Structure (SMILES) = Nc1ncnc2c1ncn2[C@@H]1O[C@H](CO)[C@@H](O)[C@H]1F; assay = cell growth or viability, SRB; conditions = 11 days; CC50 = 110 µM
Structure (SMILES) = COC(=O)c1[nH]c(C(=O)OC)c2c1-c1c[nH]c3ccc(Cl)c(c13)C21CNc2ccc(Cl)cc21 (racemic); assay = cell growth or viability, ATP luminescence; conditions = 72 h; CC50 = > 10 µM
Structure (SMILES) = COc1ccccc1C(CC(=O)c1cccc(Oc2ccccc2)c1)C(N)=O (stereo not drawn); CC50 = > 300 µg/mL
Structure (SMILES) = COc1cc([C@@H]2c3cc4c(cc3C=C(C=O)[C@H]2C(=O)N2CCCC2)OCO4)cc(OC)c1OC; assay = cell growth or viability, resazurin; conditions = 48 h; CC50 = 27.2 µM
Structure (SMILES) = CCOC(=O)c1cn(-c2nc(C)n[nH]2)nn1; assay = cell growth or viability, MTT; conditions = 72 h; CC50 = ≥ 500 µM
Structure (SMILES) = CC(C)=CCCC1=CCC2=C(C1)C(=O)c1ccccc1C2=O; assay = cytotoxicity, Alamar Blue; conditions = 72 h; CC50 = 57.8 ± 1.7 µM
Structure (SMILES) = CNC(=O)c1ccc(-c2cnn3ccc(C(=O)N(C)c4ccc(C#N)cn4)cc23)cc1; conditions = 96 h; CC50 = 21.2 ± 10.6 µM

For quick reference, copied from above:
Structure (SMILES) = COc1cc([C@@H]2c3cc4c(cc3C=C(C=O)[C@H]2C(=O)N2CCCC2)OCO4)cc(OC)c1OC; assay = cell growth or viability, resazurin; conditions = 48 h; CC50 = 27.2 µM
Structure (SMILES) = CCOC(=O)c1cn(-c2nc(C)n[nH]2)nn1; assay = cell growth or viability, MTT; conditions = 72 h; CC50 = ≥ 500 µM
Structure (SMILES) = CC(C)=CCCC1=CCC2=C(C1)C(=O)c1ccccc1C2=O; assay = cytotoxicity, Alamar Blue; conditions = 72 h; CC50 = 57.8 ± 1.7 µM
Structure (SMILES) = CNC(=O)c1ccc(-c2cnn3ccc(C(=O)N(C)c4ccc(C#N)cn4)cc23)cc1; conditions = 96 h; CC50 = 21.2 ± 10.6 µM
